Results pooled from the literature.
Protocols differ between the studies behind these lines. Several values in a cell are separate wells, animals, samples, runs or records. ± gives the spread as reported. In brackets after ≈: the same amount, converted by molar mass.

| SMILES | tested on | test | test system | conditions | scale | measurement | result |
| --- | --- | --- | --- | --- | --- | --- | --- |
| CCc1ccn2c(C(=O)NCc3ccc(C)cc3)c(C)nc2c1 | Mycobacteroides chelonae | microbial growth | – | 72 h | – | MIC | > 50 µM |
| O=C(Nc1ccccc1SSc1ccccc1NC(=O)c1ccccc1)c1ccccc1 | Influenza A virus | viral replication | MDCK, A/NWS/33 (H1N1) | 24 h | – | EC50 | 110 ± 9.2 µg/mL (≈ 241 µM) |
| CC1(C)CCC2(C(=O)NCc3ccccc3)CCC3(C)C(=CCC4C5(C)CCC(OC(=O)C6CC(OC(=O)c7ccc(F)c(F)c7)CN6C(=O)c6ccc(F)c(F)c6)C(C)(C)C5CCC43C)C2C1 (stereo not drawn) | Influenza A virus | – | MDCK, A/WSN/1933 (H1N1) | – | reference: CC50 over EC50 | selectivity index | > 22.4 |
| Oc1ccc(Br)cc1-c1nc2cc(C(F)(F)F)ccc2s1 | human coronavirus 229E | – | Huh-7 | concentration not given, unit not given | reference: DMSO | genomic RNA level | 0.603 and 0.823 and 1.03 |
| CCc1ccn2c(C(=O)NCc3ccccc3)c(C)nc2c1 | Micrococcus luteus | microbial growth | ATCC10240 | 2 mM, 20 h | – | inhibition zone | 0 mm |
| CC1(C)[C@H](NC(=O)/C(=N\OCCN)c2nsc(N)n2)C(=O)N1OS(=O)(=O)O | Salmonella enterica Typhi | agar dilution | susceptible | – | – | MIC | 16 µg/mL |
| CN(C)c1ccc(-c2nc3ccccc3n2CCCOc2ccccc2)cc1 | Mycobacterium bovis BCG | – | – | concentration not given | – | activity | inactive |
| CC1(C)[C@H](NC(=O)/C(=N\OCC(=O)N2CCC(C(=O)O)CC2)c2csc(N)n2)C(=O)N1OS(=O)(=O)O | Salmonella enterica Typhi | agar dilution | susceptible | – | – | MIC | 2 µg/mL |
| Cc1ccc(-c2nc3ccc(C)cn3c2CC(=O)NCc2ccc(N(C)C)cc2)cc1 | Bacillus subtilis | microbial growth | ATCC6633 | 2 mM, 20 h | – | inhibition zone | 15 mm |
| Cc1cc(Oc2nc(N3CC[C@@H](c4ccncc4)C3)ncc2F)[nH]n1 | Mycobacterium tuberculosis | OD | H37Rv PurF CRISPRi knockdown | 0.007813 µM, with: anhydrotetracycline low | – | normalised growth | 9% and 7% |
| Cc1ccc(NS(=O)(=O)c2c(C(=O)N3CCCCCC3)c(C)n(C)c2C)c(Cl)c1 | Fowlpox virus | viral infection | CEF | 1.235 µM | reference: untreated | infection | 85.8% and 107% and 94.6% |
| CC1(C)CCC2(C(=O)NCc3ccccc3)CCC3(C)C(=CCC4C5(C)CCC(OC(=O)C6CC(OC(=O)c7cccc(O)c7O)CN6C(=O)c6cccc(O)c6O)C(C)(C)C5CCC43C)C2C1 (stereo not drawn) | Influenza A virus | – | MDCK, A/WSN/1933 (H1N1) | – | reference: CC50 over EC50 | selectivity index | 117 |
| CN[C@@H]1[C@H](O)[C@H](NC)[C@H]2O[C@]3(O)[C@H](O[C@@H]2[C@H]1O)O[C@H](C)C[C@H]3NC(=O)Cc1cc(Cl)ccn1 | Burkholderia cepacia | microbial growth, broth dilution | ATCC25416 | – | – | MIC | > 200 µg/mL |
| Cc1ccc(CNC(=O)Cc2c(C)nc3ccc(C)cn23)cc1 | Mycobacteroides chelonae | microbial growth | – | 72 h | – | MIC | > 50 µM |
| CC1OC(OC2C(CO)OC(OC3CCC4(C)C(CCC5(C)C4CC=C4C6CC(C)(C)CCC6(C(=O)NCc6ccccc6)CCC45C)C3(C)C)C(OC3OC(C)C(O)C(O)C3O)C2O)C(O)C(O)C1O (stereo not drawn) | Influenza A virus | – | MDCK, A/WSN/1933 (H1N1) | – | reference: CC50 over EC50 | selectivity index | < 5 |
| CC(C)CC(C(=O)N1CC2(CC1C#N)C(=O)Nc1ccccc12)N(C)C(=O)c1cc2c(F)cc(F)c(F)c2[nH]1 (stereo not drawn) | human coronavirus NL63 | viral replication | LLC-MK2 | 0.05 µM | – | inhibition | 100% |
| Cc1ccc(CNC(=O)C(=O)c2c(C)nc3ccc(C)cn23)cc1 | Bacillus subtilis | microbial growth | ATCC6633 | 2 mM, 20 h | – | inhibition zone | 0 mm |
| CN[C@@H]1[C@H](O)[C@H](NC)[C@H]2O[C@]3(O)[C@H](O[C@@H]2[C@H]1O)O[C@H](C)C[C@H]3NC(=O)Cc1ccc(Cl)cn1 | Mycolicibacterium fortuitum | microbial growth | ATCC6841 | – | – | MIC | 50 µg/mL |
| Cc1ccc2nc(C)c(C(=O)C(=O)N(C)C)n2c1 | Micrococcus luteus | microbial growth | ATCC10240 | 2 mM, 20 h | – | inhibition zone | 0 mm |
| CC1(C)CCC2(C(=O)NCc3ccccc3)CCC3(C)C(=CCC4C5(C)CCC(OC(=O)C6CC(OC(=O)c7ccc(O)c(O)c7)CN6C(=O)C6CC(O)C(O)C(O)C6)C(C)(C)C5CCC43C)C2C1 (stereo not drawn) | Influenza A virus | – | MDCK, A/WSN/1933 (H1N1) | – | reference: CC50 over EC50 | selectivity index | 11.8 |
| Cc1ccc(N2CC3CC(C2)N3C)cc1C(=O)NC1(c2ccc3c4c(cccc24)C(=O)N3C)CC1 | human coronavirus 229E | viral replication | Huh-7 | 0.1875 µM | – | inhibition | 0% |
| CC1(C)[C@H](NC(=O)/C(=N\OC2(C(=O)O)CCCC2)c2csc(N)n2)C(=O)N1OS(=O)(=O)O | Salmonella enterica Typhi | agar dilution | susceptible | – | – | MIC | 0.5 µg/mL |
| CC1(C)CCC2(C(=O)NCc3ccccc3)CCC3(C)C(=CCC4C5(C)CCC(OC(=O)C6CC(OC(=O)c7ccc(OCc8ccccc8)c(OCc8ccccc8)c7)CN6C(=O)c6ccc(OCc7ccccc7)c(OCc7ccccc7)c6)C(C)(C)C5CCC43C)C2C1 (stereo not drawn) | Influenza A virus | – | MDCK, A/WSN/1933 (H1N1) | – | reference: CC50 over EC50 | selectivity index | > 6.51 |
| CCCC/C=C/C(=O)N[C@@H](Cc1csc2ccccc12)C(=O)N[C@H]1COC(=O)[C@@H]2C[C@@H](C)CN2C(=O)[C@H](C)NC(=O)[C@@H]2CCCCN2C(=O)[C@@H]2CCCN2C1=O | human coronavirus 229E | – | Huh-7 CLPP knock-out 2 | concentration not given, unit not given | reference: DMSO | RNA release | 0.00521 and 0.00631 and 0.00528 |
| O=C1NC2(CC2)COc2ncc(F)cc2[C@H]2COCCN2c2ccn3ncc1c3n2 | – | – | Sprague-Dawley rat, female, blood | oral, 5 mg/kg/day, 4 weeks, end of treatment, subacute toxicity | – | mean corpuscular haemoglobin | 20.1 ± 1 pg |
| CC1(C)[C@H](NC(=O)/C(=N\OC2(C(=O)O)CCCCC2)c2csc(N)n2)C(=O)N1OS(=O)(=O)O | Salmonella enterica Typhi | agar dilution | susceptible | – | – | MIC | 4 µg/mL |
| Cc1ccc2nc(C)c(C(=O)C(=O)NCc3ccccc3)n2c1 | Micrococcus luteus | microbial growth | ATCC10240 | 2 mM, 20 h | – | inhibition zone | 0 mm |
| CN[C@@H]1[C@H](O)[C@H](NC)[C@H]2O[C@]3(O)[C@H](O[C@@H]2[C@H]1O)O[C@H](C)C[C@H]3NC(=O)Cc1ccc(F)cn1 | Burkholderia cepacia | microbial growth, broth dilution | ATCC25416 | – | – | MIC | > 200 µg/mL |
| CCc1ccn2c(C(=O)N(C)Cc3ccccc3)c(C)nc2c1 | Bacillus subtilis | microbial growth | ATCC6633 | 2 mM, 20 h | – | inhibition zone | 0 mm |
| CC1(C)[C@H](NC(=O)/C(=N\OCC(=O)N2CCC[C@@H]2C(=O)O)c2nsc(N)n2)C(=O)N1OS(=O)(=O)O | Salmonella enterica Typhi | agar dilution | susceptible | – | – | MIC | 1 µg/mL |

Excerpt of the above:
| SMILES | tested on | test | test system | conditions | scale | measurement | result |
| --- | --- | --- | --- | --- | --- | --- | --- |
| CN(C)c1ccc(-c2nc3ccccc3n2CCCOc2ccccc2)cc1 | Mycobacterium bovis BCG | – | – | concentration not given | – | activity | inactive |
| Oc1ccc(Br)cc1-c1nc2cc(C(F)(F)F)ccc2s1 | human coronavirus 229E | – | Huh-7 | concentration not given, unit not given | reference: DMSO | genomic RNA level | 0.603 and 0.823 and 1.03 |
| CCc1ccn2c(C(=O)N(C)Cc3ccccc3)c(C)nc2c1 | Bacillus subtilis | microbial growth | ATCC6633 | 2 mM, 20 h | – | inhibition zone | 0 mm |
